Published values gathered from unrelated publications.
Protocols differ between the studies behind these lines. ± gives the spread as reported.

With FC(F)(F)c1ccnc(-c2cc(C(F)(F)F)ccn2)c1.FC(F)(F)c1ccnc(-c2cc(C(F)(F)F)ccn2)c1.[Cl-].[Cl-].[Ru+2].c1csc(-c2ccc(-c3ccc(-c4ccc(-c5nc6c7cccnc7c7ncccc7c6[nH]5)s4)s3)s2)c1 the EC50 was 2.74 µM (SK-MEL-28; cell viability; normoxia, with: red light 633 nm, 100 J/cm2).
The EC50 of CC(C)(C)OC(=O)C(NCc1ccc(CCC(=O)NO)nc1)C1CCCCC1 (stereo not drawn) is reported as 6.31 µM (monocytes; global acetylation, flow cytometry; human whole blood; 4 h).
For C(=C/c1ccccc1)/c1ccccc1, the EC50 was 20 µM (U-937; apoptosis, Hoechst nuclear staining; 24 h, 50% apoptosis induction).
With CC(C)Cn1c(=O)n(C)c(=O)c2c1nc(Cc1cccc3ccccc13)c(=O)n2CCCO the EC50 was 1.55 µM (Raji; cell growth or viability, MTT; 96 h).
For O=C1NCCN1C[C@H](O)Cn1c2ccc(F)cc2c2cc(F)ccc21, the EC50 was at least 10 µM (glioblastoma stem cells; viability).
For CC(=O)Nc1ccc(Sc2ncccc2C(=O)Nc2ccc(F)cc2)cn1, the EC50 was 6 µM (HEK293 parental; IP-One; counter-screen, with: ATP).
With CN(Cc1ccc(/C=C/C(=O)NO)cc1)CC12CC3CC(CC(C3)C1)C2 the EC50 was 0.1 µM (PNC; histone H4K12 acetylation, refers to: H4K12ac).
For [Ru+2].c1ccc(-c2ccc3c(n2)c2ncccc2c2nc4cc5ccccc5cc4nc32)nc1.c1ccc(-c2ccc3c(n2)c2ncccc2c2nc4cc5ccccc5cc4nc32)nc1, the EC50 was over 25 µM (MCF-10A; cell growth or viability, MTT; dark).
With CCCCCCCCCCCCCCCC(=O)N[C@@H](CCC(=O)NCCCC[C@H](NC(=O)[C@H](CC(=O)O)NC(=O)[C@H](CO)NC(=O)[C@@H](NC(=O)[C@H](Cc1ccccc1)NC(=O)[C@@H](NC(=O)CNC(=O)[C@H](CCC(N)=O)NC(=O)[C@H](CO)NC(=O)[C@@H](N)Cc1c[nH]cn1)[C@@H](C)O)[C@@H](C)O)C(=O)N[C@@H](CO)C(=O)N[C@@H](CCC(=O)O)C(=O)N[C@@H](Cc1ccc(O)cc1)C(=O)N[C@@H](CC(C)C)C(=O)N[C@@H](CC(=O)O)C(=O)N[C@@H](CO)C(=O)N[C@@H](CCC(=O)O)C(=O)N[C@@H](CCCNC(=N)N)C(=O)N[C@@H](C)C(=O)N[C@@H](CCCNC(=N)N)C(=O)N[C@@H](CC(=O)O)C(=O)N[C@@H](Cc1ccccc1)C(=O)N[C@H](C(=O)N[C@@H](C)C(=O)N[C@@H](Cc1c[nH]c2ccccc12)C(=O)N[C@@H](CC(C)C)C(=O)N[C@@H](CCC(=O)O)C(=O)N[C@@H](C)C(=O)NCC(=O)NCC(=O)O)C(C)C)C(=O)O the EC50 was 0.000226 ± 6.6e-05 µM (rat INS-1 832/3 β-cells; cAMP accumulation, agonist; with: 0.1% BSA).
The EC50 of Cc1ccc2c(n1)c1nc(C)ccc1c1nc3cc4ccccc4cc3nc21.[Ru+2].c1ccc(-c2cccc(-c3ccccn3)n2)nc1.c1ccncc1 is reported as 7 ± 2.1 µM (MCF-10A; cell viability, MTT; 1 h, blue light 56 J/cm2).
With C/C(=N\NC(=O)c1cccc(S(=O)(=O)N2CCOCC2)c1)c1cc(Cl)ccc1O the EC50 was 1.62 µM (TF-1a; cell growth or viability, resazurin; 96 h).
The EC50 of CC1OC2OC3C4=C(OC3(C)C12O)C(=O)c1c(O)cccc1C4=O (stereo not drawn) is reported as 3.78 µM (MDA-MB-231; viability, MTT; 48 h).

Some of these lines once more:
With CCCCCCCCCCCCCCCC(=O)N[C@@H](CCC(=O)NCCCC[C@H](NC(=O)[C@H](CC(=O)O)NC(=O)[C@H](CO)NC(=O)[C@@H](NC(=O)[C@H](Cc1ccccc1)NC(=O)[C@@H](NC(=O)CNC(=O)[C@H](CCC(N)=O)NC(=O)[C@H](CO)NC(=O)[C@@H](N)Cc1c[nH]cn1)[C@@H](C)O)[C@@H](C)O)C(=O)N[C@@H](CO)C(=O)N[C@@H](CCC(=O)O)C(=O)N[C@@H](Cc1ccc(O)cc1)C(=O)N[C@@H](CC(C)C)C(=O)N[C@@H](CC(=O)O)C(=O)N[C@@H](CO)C(=O)N[C@@H](CCC(=O)O)C(=O)N[C@@H](CCCNC(=N)N)C(=O)N[C@@H](C)C(=O)N[C@@H](CCCNC(=N)N)C(=O)N[C@@H](CC(=O)O)C(=O)N[C@@H](Cc1ccccc1)C(=O)N[C@H](C(=O)N[C@@H](C)C(=O)N[C@@H](Cc1c[nH]c2ccccc12)C(=O)N[C@@H](CC(C)C)C(=O)N[C@@H](CCC(=O)O)C(=O)N[C@@H](C)C(=O)NCC(=O)NCC(=O)O)C(C)C)C(=O)O the EC50 was 0.000226 ± 6.6e-05 µM (rat INS-1 832/3 β-cells; cAMP accumulation, agonist; with: 0.1% BSA).
